Results of several laboratories.
Values joined by “and” are separate records of one study, mostly repeats; a detail may differ. ± gives the spread as reported.
Alpha-amylase: Alpha-amylase (Bos taurus, UniProt Q3MHH8)
FFAR4: Free fatty acid receptor 4 (FFAR4, Homo sapiens, UniProt Q5NUL3)
UniProt Q5NUL3, sequence (whole entry, looked up): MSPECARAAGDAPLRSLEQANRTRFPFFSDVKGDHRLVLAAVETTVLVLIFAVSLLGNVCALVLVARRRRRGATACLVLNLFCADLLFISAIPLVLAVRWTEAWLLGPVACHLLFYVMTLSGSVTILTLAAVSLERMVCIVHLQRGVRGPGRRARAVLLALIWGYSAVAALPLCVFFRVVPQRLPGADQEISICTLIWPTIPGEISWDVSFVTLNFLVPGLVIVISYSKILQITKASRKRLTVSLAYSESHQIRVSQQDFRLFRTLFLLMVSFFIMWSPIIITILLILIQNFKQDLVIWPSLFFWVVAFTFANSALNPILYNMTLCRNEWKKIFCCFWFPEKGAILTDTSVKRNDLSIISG
HRH1: Histamine H1 receptor (HRH1, Homo sapiens, UniProt P35367)
UniProt P35367, sequence (whole entry, looked up): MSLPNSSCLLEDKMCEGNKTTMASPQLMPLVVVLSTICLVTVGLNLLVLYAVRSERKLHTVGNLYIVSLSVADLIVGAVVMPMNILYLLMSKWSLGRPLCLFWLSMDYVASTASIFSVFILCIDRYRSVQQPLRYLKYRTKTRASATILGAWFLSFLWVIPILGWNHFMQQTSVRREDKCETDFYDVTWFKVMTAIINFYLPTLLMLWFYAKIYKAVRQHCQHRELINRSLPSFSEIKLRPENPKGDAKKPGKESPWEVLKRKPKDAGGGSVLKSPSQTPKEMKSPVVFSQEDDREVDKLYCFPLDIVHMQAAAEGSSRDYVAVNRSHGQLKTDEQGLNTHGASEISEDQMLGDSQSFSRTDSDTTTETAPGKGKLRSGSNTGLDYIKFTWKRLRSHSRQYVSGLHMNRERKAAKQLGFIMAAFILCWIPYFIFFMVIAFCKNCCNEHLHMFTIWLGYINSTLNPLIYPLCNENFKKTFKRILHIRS
Trypanothione synthetase: Trypanothione synthetase (Trypanosoma brucei brucei, UniProt Q8IEX1)
UniProt O60658, sequence (whole entry, looked up): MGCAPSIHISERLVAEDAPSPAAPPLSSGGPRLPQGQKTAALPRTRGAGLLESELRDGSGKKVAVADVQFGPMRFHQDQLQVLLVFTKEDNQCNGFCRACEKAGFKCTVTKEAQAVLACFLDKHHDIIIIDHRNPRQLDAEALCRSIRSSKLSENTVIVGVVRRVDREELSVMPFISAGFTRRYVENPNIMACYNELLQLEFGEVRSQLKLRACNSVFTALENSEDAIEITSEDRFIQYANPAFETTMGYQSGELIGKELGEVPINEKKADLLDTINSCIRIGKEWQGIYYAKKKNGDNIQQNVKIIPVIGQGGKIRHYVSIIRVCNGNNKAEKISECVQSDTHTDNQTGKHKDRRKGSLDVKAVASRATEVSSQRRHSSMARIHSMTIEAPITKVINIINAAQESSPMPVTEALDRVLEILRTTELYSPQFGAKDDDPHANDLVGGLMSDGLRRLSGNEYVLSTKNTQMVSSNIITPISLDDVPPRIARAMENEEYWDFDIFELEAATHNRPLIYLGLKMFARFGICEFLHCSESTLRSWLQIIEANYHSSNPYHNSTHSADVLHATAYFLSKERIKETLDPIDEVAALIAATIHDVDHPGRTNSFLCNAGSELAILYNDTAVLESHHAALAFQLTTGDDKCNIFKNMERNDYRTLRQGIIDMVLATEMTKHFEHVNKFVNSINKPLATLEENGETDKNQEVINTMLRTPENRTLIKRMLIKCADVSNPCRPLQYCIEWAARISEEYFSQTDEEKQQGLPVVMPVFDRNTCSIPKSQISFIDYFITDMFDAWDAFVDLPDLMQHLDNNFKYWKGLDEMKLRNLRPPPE
UniProt O60307, sequence (whole entry, looked up): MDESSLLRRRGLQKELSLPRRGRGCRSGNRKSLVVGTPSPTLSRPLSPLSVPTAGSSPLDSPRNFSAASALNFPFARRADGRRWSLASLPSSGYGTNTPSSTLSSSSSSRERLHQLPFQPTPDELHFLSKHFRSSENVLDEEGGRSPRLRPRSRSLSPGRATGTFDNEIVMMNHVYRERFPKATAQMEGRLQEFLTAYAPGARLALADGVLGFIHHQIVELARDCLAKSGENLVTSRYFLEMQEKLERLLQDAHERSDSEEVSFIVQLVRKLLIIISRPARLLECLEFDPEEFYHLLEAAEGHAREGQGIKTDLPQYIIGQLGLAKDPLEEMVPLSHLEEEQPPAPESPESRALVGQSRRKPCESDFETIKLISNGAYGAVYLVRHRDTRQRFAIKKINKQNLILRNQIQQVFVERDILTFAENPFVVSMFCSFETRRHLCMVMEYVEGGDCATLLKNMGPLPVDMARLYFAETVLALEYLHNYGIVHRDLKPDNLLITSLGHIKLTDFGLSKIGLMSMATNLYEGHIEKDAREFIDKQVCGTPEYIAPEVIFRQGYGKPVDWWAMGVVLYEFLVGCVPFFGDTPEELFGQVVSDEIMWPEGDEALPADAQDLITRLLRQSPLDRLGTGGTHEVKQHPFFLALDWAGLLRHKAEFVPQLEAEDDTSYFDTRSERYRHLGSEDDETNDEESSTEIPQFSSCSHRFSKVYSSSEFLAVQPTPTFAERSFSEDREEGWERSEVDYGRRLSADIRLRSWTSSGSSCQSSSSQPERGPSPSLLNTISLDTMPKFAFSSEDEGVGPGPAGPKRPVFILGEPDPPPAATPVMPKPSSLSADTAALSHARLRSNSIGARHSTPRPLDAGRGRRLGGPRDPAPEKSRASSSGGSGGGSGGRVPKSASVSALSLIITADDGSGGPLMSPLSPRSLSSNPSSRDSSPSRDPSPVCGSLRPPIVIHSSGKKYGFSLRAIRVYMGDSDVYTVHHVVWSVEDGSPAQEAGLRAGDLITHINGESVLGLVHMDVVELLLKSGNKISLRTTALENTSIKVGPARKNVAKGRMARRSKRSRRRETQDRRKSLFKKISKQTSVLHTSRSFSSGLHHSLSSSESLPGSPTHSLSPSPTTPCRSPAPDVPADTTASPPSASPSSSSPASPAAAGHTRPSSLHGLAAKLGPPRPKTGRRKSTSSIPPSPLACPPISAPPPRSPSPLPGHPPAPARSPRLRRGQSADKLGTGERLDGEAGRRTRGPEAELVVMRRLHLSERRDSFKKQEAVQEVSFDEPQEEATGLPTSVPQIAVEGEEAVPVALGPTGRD
UniProt Q70EK9, sequence (whole entry, looked up): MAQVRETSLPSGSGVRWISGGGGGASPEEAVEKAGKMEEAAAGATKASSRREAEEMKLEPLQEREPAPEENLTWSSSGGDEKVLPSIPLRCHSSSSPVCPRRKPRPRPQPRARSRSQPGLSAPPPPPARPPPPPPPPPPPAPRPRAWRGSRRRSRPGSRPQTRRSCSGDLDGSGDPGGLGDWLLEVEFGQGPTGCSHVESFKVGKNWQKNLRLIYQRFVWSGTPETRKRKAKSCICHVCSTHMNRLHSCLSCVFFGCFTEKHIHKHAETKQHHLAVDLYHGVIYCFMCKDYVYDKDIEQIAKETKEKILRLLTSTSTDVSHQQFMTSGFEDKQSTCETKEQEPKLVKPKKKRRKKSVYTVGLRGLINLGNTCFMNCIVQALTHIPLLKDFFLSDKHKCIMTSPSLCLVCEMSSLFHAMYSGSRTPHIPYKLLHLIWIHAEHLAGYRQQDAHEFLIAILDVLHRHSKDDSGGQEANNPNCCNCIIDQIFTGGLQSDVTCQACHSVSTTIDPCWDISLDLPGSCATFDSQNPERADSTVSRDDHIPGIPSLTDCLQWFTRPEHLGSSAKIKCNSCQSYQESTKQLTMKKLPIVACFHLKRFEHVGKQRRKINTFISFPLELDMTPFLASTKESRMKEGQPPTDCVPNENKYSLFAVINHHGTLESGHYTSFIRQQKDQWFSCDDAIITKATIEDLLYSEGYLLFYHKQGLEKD
UniProt O75460, sequence (whole entry, looked up): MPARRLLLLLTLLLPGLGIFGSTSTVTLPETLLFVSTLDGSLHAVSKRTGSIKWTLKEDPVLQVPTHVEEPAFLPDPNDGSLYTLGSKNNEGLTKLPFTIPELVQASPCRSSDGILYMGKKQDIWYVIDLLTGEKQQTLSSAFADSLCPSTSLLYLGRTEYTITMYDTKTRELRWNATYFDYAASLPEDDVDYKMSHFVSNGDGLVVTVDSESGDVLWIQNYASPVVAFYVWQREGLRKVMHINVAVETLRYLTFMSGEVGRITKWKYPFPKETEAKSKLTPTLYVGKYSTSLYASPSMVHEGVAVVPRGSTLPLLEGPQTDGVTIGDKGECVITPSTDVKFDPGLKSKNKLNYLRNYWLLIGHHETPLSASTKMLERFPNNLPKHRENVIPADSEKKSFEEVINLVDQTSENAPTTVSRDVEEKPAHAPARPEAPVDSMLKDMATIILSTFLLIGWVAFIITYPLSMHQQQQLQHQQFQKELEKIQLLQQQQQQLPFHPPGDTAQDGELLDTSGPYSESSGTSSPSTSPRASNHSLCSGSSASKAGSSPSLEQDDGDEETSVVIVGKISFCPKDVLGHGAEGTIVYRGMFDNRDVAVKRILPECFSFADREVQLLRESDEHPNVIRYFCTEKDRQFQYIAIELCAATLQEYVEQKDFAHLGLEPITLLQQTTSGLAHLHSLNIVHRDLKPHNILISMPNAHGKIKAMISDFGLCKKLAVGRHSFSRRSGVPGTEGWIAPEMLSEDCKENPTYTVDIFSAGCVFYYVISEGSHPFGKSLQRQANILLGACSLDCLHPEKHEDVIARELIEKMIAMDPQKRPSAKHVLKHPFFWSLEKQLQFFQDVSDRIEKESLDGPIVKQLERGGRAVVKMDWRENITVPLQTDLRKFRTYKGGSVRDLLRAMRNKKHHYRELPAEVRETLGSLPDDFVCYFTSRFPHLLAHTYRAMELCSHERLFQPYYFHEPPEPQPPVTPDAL

CC1=NNC(=S)NC(=O)C1/N=N/c1ccc(S(N)(=O)=O)cc1 (stereo not shown)
inhibition (Alpha-amylase; enzyme activity, inhibitor, glucose oxidase; 200 µg/mL, together with: dextrin): 17.5%

O=c1cc(NCCc2ccc(F)cc2)[nH]c(=O)[nH]1
inhibition (FFAR4; antagonist, β-arrestin recruitment; CHO cells; 10 µM, together with: 4 µM TUG-891): 11 ± 3%

COc1cc(Cl)c(C(=O)N[C@@H](CN[C@H]2CC[C@@H](N)CC2)Cc2ccc(C#N)cc2)cc1-c1ccc(CN[C@H](C)c2ccc(C)cc2)o1
inhibition (HRH1; agonist response, antagonist; human cells; 10 µM, H1 antagonist): 18%

CC[C@]12CCCN3CCc4c([nH]c5ccccc45)[C@]31N(Cc1cn(Cc3ccccc3)nn1)C(=O)C2
inhibition (HRH1; antagonist, PathHunter; 20 µM): 17%

CC(C)CCCCCNc1cc(=O)[nH]c(=O)[nH]1
inhibition (FFAR4; antagonist, β-arrestin recruitment; CHO cells; 10 µM): 21 ± 5%

CCc1nn(C)c2nc(-c3ccc(C(=O)O)cc3)nc(NCc3ccc(F)cc3)c12
inhibition (PDE8A (Homo sapiens, UniProt O60658); enzyme activity; 10 µM, together with: [3H]cAMP): 32.9%

COc1ccc(F)cc1C(=O)NCc1ccc(-c2nn([C@@H](C)C(F)(F)F)c(N)c2C(N)=O)cc1
inhibition (STK39 (Homo sapiens, UniProt Q9UEW8); target engagement, competitive chemoproteomics; human PBMCs; 0.1 µM): 17.3%

CCN1CCN(Cc2ccc(NC(=O)c3ccc(C)c(/C=C/c4cnc5[nH]ccc5c4OC)c3)cc2C(F)(F)F)CC1
inhibition (MAST3 (Homo sapiens, UniProt O60307); A-375; 0.05 µM): -14.2%

CC[C@@H]1[C@H](F)C(=O)N[C@@H]1COc1nccc2cc(C(N)=O)c(OC)cc12
inhibition (CAMKK2 (Homo sapiens, UniProt Q96RR4); ATP-site probe binding, ActivX profiling; THP-1 cell lysate; 0.2 mM, Lys2 site): 8.1%

[2H]c1cc(C)c(NC(=O)c2cnc(Nc3cc(N4CCCCC4)nc(C)n3)s2)c(Cl)c1
inhibition (BMX (Homo sapiens, UniProt P51813); 0.0001 µM): > 50%

Cc1ccc(CNC(=O)[C@H](CCc2ccccc2)NC(=O)[C@H](CCc2ccccc2)NC(=O)[C@H](CCc2ccccc2)NC(=O)c2cnc(C)cn2)cc1
inhibition (chymotrypsin; enzyme activity, inhibitor; 100 µM): -4%

Cc1cc(-c2ccnc3[nH]cc(F)c23)cc(F)c1[C@@]1(O)[C@H](C)CN(C(=O)CN)C[C@@H]1C
inhibition (ROCK1 (Homo sapiens, UniProt Q13464); ATP probe binding, KiNativ; HEK293T cell lysate; 0.1 µM): 16.8%

O=c1cc(NCc2cccc3ccccc23)[nH]c(=O)[nH]1
inhibition (FFAR4; antagonist, β-arrestin recruitment; CHO cells; 10 µM): 5 ± 16%

CCOC(=O)CN1C(=O)Cc2c([nH]c3ccc(Br)cc23)-c2ccc(Cl)cc21
inhibition (Trypanothione synthetase; enzyme activity, inhibitor, BIOMOL Green; 30 µM): 29.8 ± 5.5%

COc1ccc(CCNc2cc(=O)[nH]c(=O)[nH]2)cc1OC
inhibition (FFAR4; antagonist, β-arrestin recruitment; CHO cells; 10 µM, together with: 4 µM TUG-891): -1 ± 8%

COc1cc(C(=O)OCCCN2CCCN(CCCOC(=O)c3cc(OC)c(OC)c(OC)c3)CC2)cc(OC)c1OC
inhibition (Equilibrative nucleoside transporter 2 (Homo sapiens, UniProt Q14542); nucleoside transport, inhibitor; MDCKII cells expressing ENT2; 2 µM, together with: adenosine): 16.2% and 17.8%

C#Cc1cc(-c2cc(Nc3nc(N[C@@H](C)c4ccc(F)cn4)ncc3Cl)n[nH]2)ccc1C=O
inhibition (ERN1 (Homo sapiens, UniProt O75460); enzyme activity, inhibitor; 0.2 µM): 2.66%

CC1=NN(c2cc(Cl)ccc2Cl)C(=O)C1=NNc1ccc(S(N)(=O)=O)cc1
inhibition (Alpha-amylase; enzyme activity, inhibitor, glucose oxidase; 200 µg/mL, together with: dextrin): 18.6%

O=C(CN1C(=O)Cc2c([nH]c3ccc(Br)cc23)-c2ccc(Cl)cc21)NCCN1CCCCC1
inhibition (Trypanothione synthetase; enzyme activity, inhibitor, BIOMOL Green; 30 µM): 20.5 ± 3.2%

O=C(CO)[C@@H](O)[C@H](O)[C@H](O)CO
inhibition (USP51 (Homo sapiens, UniProt Q70EK9); inhibitor; 1 µM, 1 h preincubation, together with: Ub-AMC 250 nM): 85%

CN(C(=O)n1cnc(-c2ccc[n+]([O-])c2)c1)C1CCCCC1
inhibition (Adra1b (Rattus norvegicus, UniProt P15823); 10 µM): 3.12%

O=Nc1c(NCCc2ccccc2)[nH]c(=O)[nH]c1=O
inhibition (FFAR4; antagonist, β-arrestin recruitment; CHO cells; 10 µM, together with: 4 µM TUG-891): 19 ± 8%

Cn1cncc1C1=CN(c2ncnc3[nH]cnc23)CCS1
inhibition (PRKCG (Homo sapiens, UniProt P05129); enzyme activity; 0.05 µM): 30.5%

O=C(CN1C(=O)Cc2c([nH]c3ccc(Br)cc23)-c2ccc(Cl)cc21)Nc1nncs1
inhibition (Trypanothione synthetase; enzyme activity, inhibitor, BIOMOL Green; 30 µM): 18.8 ± 3.3%

O=c1cc(NCCCOc2ccccc2)[nH]c(=O)[nH]1
inhibition (FFAR4; antagonist, β-arrestin recruitment; CHO cells; 10 µM, together with: 4 µM TUG-891): 16 ± 6%

Cn1cc(-c2cnc3ccc(NC(=O)Nc4ccc(F)c(Br)c4)cc3n2)cn1
inhibition (TBK1 (Homo sapiens, UniProt Q9UHD2); kinase binding, KiNativ profiling, measured: Lys1 peptide; PANC-1 lysate; 5 µM): 4%

CC1=NN(c2ccccn2)C(=O)C1=NNc1ccc(S(N)(=O)=O)cc1
inhibition (Alpha-amylase; enzyme activity, inhibitor, glucose oxidase; 500 µg/mL, together with: dextrin): 19%

CCN(Cc1ccccc1C(F)(F)F)C(=O)C1CCN(S(=O)(=O)c2ccc3[nH]ncc3c2)CC1
inhibition (rat thyroid hormone receptor; radioligand binding; 10 µM): 5%

CC1=NN(c2ccc(Cl)cc2)C(=O)C1=NNc1ccc(S(N)(=O)=O)cc1
inhibition (Alpha-amylase; enzyme activity, inhibitor, glucose oxidase; 50 µg/mL, together with: dextrin): 7.29%

CCCCCCCNc1[nH]c(=O)[nH]c(=O)c1N=O
inhibition (FFAR4; antagonist, β-arrestin recruitment; CHO cells; 10 µM): 27 ± 5%

CC1=NN(c2cccc(C)c2)C(=O)C1=NNc1ccc(S(N)(=O)=O)cc1
inhibition (Alpha-amylase; enzyme activity, inhibitor, glucose oxidase; 10 µg/mL, together with: dextrin): 14.395 ± 0.000238%

O=c1cc(NCCCCCCCO)[nH]c(=O)[nH]1
inhibition (FFAR4; antagonist, β-arrestin recruitment; CHO cells; 10 µM): 11 ± 2%

CC1=NOC(=O)C1=NNc1ccc(S(N)(=O)=O)cc1
inhibition (Alpha-amylase; enzyme activity, inhibitor, glucose oxidase; 200 µg/mL, together with: dextrin): 35.9%

O=C(Nc1cccc2c(=O)cc(-c3nnn[nH]3)oc12)c1ccc(OCCCCc2ccccc2)cc1
inhibition (Volume-regulated anion channel subunit LRRC8C, part LRRC8A IL1 chimera (LRRC8C, Homo sapiens, UniProt Q8TDW0, E6A); ion current, inhibitor, whole-cell patch clamp; HCT LRRC8-/- cells; 0.1 µM, +100 mV): 43.2% and 28.3% and 48.7% and 44.4% and 19.4%

Excerpt of the above:
Cn1cncc1C1=CN(c2ncnc3[nH]cnc23)CCS1
inhibition (PRKCG (Homo sapiens, UniProt P05129); enzyme activity; 0.05 µM): 30.5%

O=C(CO)[C@@H](O)[C@H](O)[C@H](O)CO
inhibition (USP51 (Homo sapiens, UniProt Q70EK9); inhibitor; 1 µM, 1 h preincubation, together with: Ub-AMC 250 nM): 85%

O=Nc1c(NCCc2ccccc2)[nH]c(=O)[nH]c1=O
inhibition (FFAR4; antagonist, β-arrestin recruitment; CHO cells; 10 µM, together with: 4 µM TUG-891): 19 ± 8%
